Results from different studies.
A part holds a random share of what one study measured. Values joined by “and” are separate records of one study, mostly repeats; a detail may differ. Changes are numbered by the printed parent chain.
UniProt P17106, sequence (whole entry, looked up): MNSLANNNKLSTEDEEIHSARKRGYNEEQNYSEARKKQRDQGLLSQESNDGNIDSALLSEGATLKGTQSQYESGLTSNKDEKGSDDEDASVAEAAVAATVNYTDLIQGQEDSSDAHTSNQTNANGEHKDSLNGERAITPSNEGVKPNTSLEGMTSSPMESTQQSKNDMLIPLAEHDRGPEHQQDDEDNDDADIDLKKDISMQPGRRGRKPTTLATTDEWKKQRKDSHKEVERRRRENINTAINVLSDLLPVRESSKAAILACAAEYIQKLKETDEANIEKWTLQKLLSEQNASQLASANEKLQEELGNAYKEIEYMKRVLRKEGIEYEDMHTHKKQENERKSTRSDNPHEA

Sample 1 — target: tungstate, free oxyanion; method: microfluidic competitive inhibition; matrix: in vitro, cell-free expressed; concentration: not given; reading: lower = stronger binding
Notes: derived from inhibition constants, unchanged parent 2230 nM
Parent: PafA, mature enzyme, eGFP fusion (Elizabethkingia meningoseptica, UniProt Q9KJX5); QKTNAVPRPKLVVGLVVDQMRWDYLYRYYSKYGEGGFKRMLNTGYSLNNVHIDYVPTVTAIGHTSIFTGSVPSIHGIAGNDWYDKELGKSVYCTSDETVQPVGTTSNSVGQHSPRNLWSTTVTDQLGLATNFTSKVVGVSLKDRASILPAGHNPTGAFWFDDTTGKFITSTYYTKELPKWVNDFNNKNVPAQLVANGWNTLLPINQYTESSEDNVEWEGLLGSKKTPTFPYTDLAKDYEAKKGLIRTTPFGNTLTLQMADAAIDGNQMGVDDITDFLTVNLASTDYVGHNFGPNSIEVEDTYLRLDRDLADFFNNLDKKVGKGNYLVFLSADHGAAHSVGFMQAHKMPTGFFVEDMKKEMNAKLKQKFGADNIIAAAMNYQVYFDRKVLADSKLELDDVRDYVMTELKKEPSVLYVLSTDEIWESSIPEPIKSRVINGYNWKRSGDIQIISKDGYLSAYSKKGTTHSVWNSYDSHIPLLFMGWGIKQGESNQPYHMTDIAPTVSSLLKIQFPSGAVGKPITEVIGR
Change	oxyanion analog dissociation constant [nM]
T98V	1780
E354V	2070
S106V	2360
S418V	2200
H51V	2060
T419G	1270
D272V	2470
F351G	2270

Sample 2 — read-out: phage display binding; method: phage display panning NGS; form: peptide; baseline: OGT-panned over input library
Target: UDP-N-acetylglucosamine--peptide N-acetylglucosaminyltransferase 110 kDa subunit (OGT, Homo sapiens, UniProt O15294)
Residues (O15294 1-1046): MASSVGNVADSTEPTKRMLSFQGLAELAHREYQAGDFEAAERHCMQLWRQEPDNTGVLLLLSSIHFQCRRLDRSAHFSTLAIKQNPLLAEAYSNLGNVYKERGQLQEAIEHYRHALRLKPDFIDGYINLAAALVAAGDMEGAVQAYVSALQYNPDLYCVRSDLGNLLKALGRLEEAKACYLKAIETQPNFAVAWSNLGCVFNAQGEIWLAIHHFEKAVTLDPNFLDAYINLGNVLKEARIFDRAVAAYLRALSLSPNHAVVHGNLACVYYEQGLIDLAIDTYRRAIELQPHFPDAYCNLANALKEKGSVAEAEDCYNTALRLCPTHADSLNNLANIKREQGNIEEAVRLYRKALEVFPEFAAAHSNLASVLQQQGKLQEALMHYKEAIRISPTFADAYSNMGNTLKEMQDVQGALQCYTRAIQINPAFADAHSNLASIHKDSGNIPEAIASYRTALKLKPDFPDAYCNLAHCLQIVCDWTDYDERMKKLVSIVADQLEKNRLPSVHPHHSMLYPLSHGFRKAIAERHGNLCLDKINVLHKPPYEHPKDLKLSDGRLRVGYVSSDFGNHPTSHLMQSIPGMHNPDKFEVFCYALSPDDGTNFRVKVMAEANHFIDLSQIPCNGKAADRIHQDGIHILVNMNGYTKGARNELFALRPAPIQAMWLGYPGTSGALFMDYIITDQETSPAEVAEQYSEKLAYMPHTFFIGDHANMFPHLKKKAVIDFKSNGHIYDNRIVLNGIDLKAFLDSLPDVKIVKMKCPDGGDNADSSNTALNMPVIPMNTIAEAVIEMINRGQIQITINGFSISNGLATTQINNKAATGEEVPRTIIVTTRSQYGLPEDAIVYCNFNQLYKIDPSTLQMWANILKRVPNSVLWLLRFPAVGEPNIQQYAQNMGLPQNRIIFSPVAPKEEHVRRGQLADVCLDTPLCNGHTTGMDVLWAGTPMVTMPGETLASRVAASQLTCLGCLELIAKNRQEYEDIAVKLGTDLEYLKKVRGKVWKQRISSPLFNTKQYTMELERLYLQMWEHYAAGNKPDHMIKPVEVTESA
Molecule	log2 fold enrichment
QMEYYPQYQLRYMQV	1.49
VDIGTTYMPFYQITN	3.26
FLPQYKIEVPFSVYK	2.65
TWQWNAHHHHGMSGV	3.68
SIPEVFFAPVYQIET	3.07
DDWRPLYQIIYTSQD	6.11
DDITFPPQYMMTVHR	1.99
VHRNSHHSEHHRDFE	2.62

Mixed results
Substance	target or system	test	system	conditions	scale	quantity	value
CN(N=O)C(=O)N[C@@H]1[C@@H](O)[C@H](O)[C@@H](CO)O[C@@H]1O			mice, STZ diabetic neuropathy	dose not given, 28 days after STZ		body weight	31 g and 34 g and 37.2 g and 32.9 g and 29 g
O=C(O[C@H]1C[C@H]2CC[C@@H](C1)[N+]21CCCC1)C(O)(c1ccccc1)c1ccccc1	HEK-293T	pseudovirus infection, FDA-approved drug library counter-screen	VSV pseudotyped with VSV-G	10 µM, 16 h	baseline: vehicle-treated	GFP-positive cells	89.6%
CTAGTATTTTCACGTGATGCGCCTCACTGCGGATTCGTCTTGATTCGCTTGACGCTGCTG	Centromere-binding protein 1, full length, N-terminal tag (CBF1, Saccharomyces cerevisiae, UniProt P17106, residues 1-351)	protein-binding microarray	double-stranded DNA, one strand shown, in vitro	0.8 µM, whole 60-bp probe, no competitor	higher = stronger binding	fluorescence intensity	12100 a.u.

Some of these lines once more (sample 2):
Molecule	log2 fold enrichment
VDIGTTYMPFYQITN	3.26
FLPQYKIEVPFSVYK	2.65
